Measured values pooled from the literature.
Cell line: MCF7
Effect on: cell growth or viability

With `N=C(N)NCCC[C@@H]1NC(=O)[C@H](CCCCN)NC(=O)[C@@H](Cc2ccc(O)cc2)NC(=O)[C@H](CC(=O)O)NC(=O)CNC1=O` the GI50 was over 100 µM (MTT).
For `CC(C)C[C@@H](NC(=O)[C@H](C)NC(=O)CNC(=O)[C@@H](NC=O)C(C)C)C(=O)N[C@@H](C)C(=O)N[C@@H](C(=O)N[C@H](C(=O)N[C@@H](C(=O)N[C@@H](Cc1c[nH]c2ccccc12)C(=O)N[C@H](CC(C)C)C(=O)N[C@@H](Cc1c[nH]c2ccccc12)C(=O)N[C@H](CC(C)C)C(=O)N[C@@H](Cc1c[nH]c2ccccc12)C(=O)N[C@H](CC(C)C)C(=O)N[C@@H](Cc1c[nH]c2ccccc12)C(=O)NCCO)C(C)C)C(C)C)C(C)C`, the GI50 was 0.042 µM (SRB; 48 h).
`O=C1c2ccccc2C(=O)c2c1ccc1c2C(C(=O)Nc2ccc(Cl)cc2)C(=O)C1c1ccccc1` (stereo not shown) has a GI50 of 45.2 µg/mL.
For `CC(=O)OCC1(O)C(Nc2cccc(C(C)=O)c2)C(N)C(NC(=O)N(C)C)(C(C)OC(C)=O)C1(C)O` (stereo not shown), the GI50 was 7.31 µM (SRB).
`O=C1c2ccccc2C(=O)c2c1ccc1c2C(C(=O)Nc2ccccc2Cl)C(=O)C1c1ccccc1` (stereo not shown) gave a GI50 of 18.5 µg/mL.
For `COC(=O)N[C@H]1CC[C@@H](Nc2cc(NCc3ccccc3F)n3ncc(C(C)C)c3n2)CC1`, the GI50 was 4.2 µM (SRB).
With `CCC(=C(c1ccc(Cl)cc1)c1ccc(OCCCN(C)C)cc1)c1ccc(OC)cc1` the GI50 was 1.05 µM (SRB).
`CC(C)C1=C(O)C(=O)C2=C(C1=O)[C@H](OC=O)[C@@H](O)[C@H]1C(C)(C)CCC[C@]21C` has a GI50 of 7.9 µM (SRB; 48 h).
With `CC(=O)N[C@@H](Cc1ccc(O)cc1)CN(CC(=O)N[C@@H](CCCCN)CN(CC(=O)N[C@@H](Cc1ccccc1)CN(CC(=O)N[C@H]1CCCCNc2c(F)c(F)c(c(F)c2F)S(=O)(=O)c2c(F)c(F)c(c(F)c2F)NCCCC[C@@H](CN(CC(=O)N[C@@H](C)CN(CC(N)=O)S(C)(=O)=O)S(C)(=O)=O)NC(=O)CN(S(=O)(=O)CC(C)C)C[C@H](Cc2ccccc2)NC(=O)CN(S(=O)(=O)CCN)C1)S(=O)(=O)CC(C)C)S(=O)(=O)CCN)S(C)(=O)=O` the GI50 was 10.1 µM (CCK-8; 72 h).
With `CCCC(C)NC(=O)C(Nc1ccccc1C(=O)c1ccccc1)c1cn(C)c2ccccc12` (stereo not shown) the GI50 was 6 µM (MTT; 72 h).
With `CC(=O)N[C@@H](Cc1ccc(O)cc1)CN(CC(=O)N[C@@H](CCCCN)CN(CC(=O)N[C@@H](Cc1ccccc1)CN(CC(=O)N[C@H]1CCCCNc2c(F)c(F)c(c(F)c2F)S(=O)(=O)c2c(F)c(F)c(c(F)c2F)NCCCC[C@@H](CN(CC(=O)N[C@@H](C)CN(CC(N)=O)S(C)(=O)=O)S(C)(=O)=O)NC(=O)CN(S(=O)(=O)CC(C)C)C[C@H](CC(C)C)NC(=O)CN(S(=O)(=O)CCN)C1)S(=O)(=O)CC(C)C)S(=O)(=O)CCN)S(C)(=O)=O` the GI50 was 0.83 µM (CCK-8; 72 h).
`COc1ccc(-c2cc(COC3c4cc5c(cc4C(c4cc(OC)c(OC)c(OC)c4)C4C(=O)OCC34)OCO5)on2)cc1` (stereo not shown) has a GI50 of 0.18 µM (SRB; 48 h).
The GI50 of `O=C1c2ccccc2C(=O)c2c1ccc1c2C(C(=O)NCc2ccccc2)C(=O)C1c1ccccc1` (stereo not shown) is reported as 10.3 µg/mL.
`CC/C=C\C/C=C\C/C=C\C/C=C\C/C=C\C/C=C\CCC(=O)Nc1ccn(C2OC(CO)C(O)C2(F)F)c(=O)n1` (stereo not shown) has a GI50 of under 0.01 µM (SRB).
The GI50 of `COc1cc([C@@H]2c3cc4c(cc3[C@@H](OCc3cc(-c5ccc(C#N)cc5)no3)[C@H]3COC(=O)C23)OCO4)cc(OC)c1OC` (stereo partly shown) is reported as 0.42 µM (SRB; 48 h).
For `CC(Cc1ccc(Cl)cc1)=C(c1ccc(Cl)cc1)c1ccc(OCCN(C)C)cc1`, the GI50 was 1.7 µM (SRB).

A few entries again:
The GI50 of `COc1cc([C@@H]2c3cc4c(cc3[C@@H](OCc3cc(-c5ccc(C#N)cc5)no3)[C@H]3COC(=O)C23)OCO4)cc(OC)c1OC` (stereo partly shown) is reported as 0.42 µM (SRB; 48 h).
For `CC(Cc1ccc(Cl)cc1)=C(c1ccc(Cl)cc1)c1ccc(OCCN(C)C)cc1`, the GI50 was 1.7 µM (SRB).
